Results pooled from the literature.
Numbered parts are unrelated; each lists some results of a single study. Changes are numbered by the printed parent chain.

Set 1
Target: Sal-like protein 4, full length isoform B (SALL4, Homo sapiens, UniProt Q9UJQ4-2, residues 1-616)
Technique: universal PBM
Molecule type: double-stranded DNA, one strand shown
Medium: in vitro
Tested at: not given
Setting: 8-mer, flanks averaged, mean of replicates
Reading: higher = stronger binding
Strand | E-score
TCTGAAAA | 0.124
AATGGTAT | 0.229
ACCAACGA | -0.111
GGTGTGAA | 0.141
AATCTGCC | -0.0904
CCTCTCTA | -0.173
GCACACGA | -0.106
AATTTACG | 0.167
CTGGGTGC | -0.4
CACGGGGG | -0.286
AGGCTTCG | -0.199
GCCCGCAA | -0.152
ATGCGGCA | -0.17
AACTCGTA | 0.142
GTGTACGA | 0.0593
CCCATAAC | 0.138
ACACGACA | 0.126
CCGTCTTC | -0.226
CCGGGGAG | -0.376
CAAGGTAG | -0.0961
AGGTATCA | 0.111
AACGTACG | 0.141
CTAGGATA | 0.122
GGAATCGA | -0.162
ACAAATAA | 0.294

Set 2
Target: CCNA1, cyclin fold, Cln2 fusion (human)
Technique: yeast growth competition, sequencing
Medium: yeast
Setting: weak parent motif
Relative to: not given
Reading: higher = stronger binding
Starting sequence: RBL1 docking peptide (human); GSAKRRLFGEDPP
Substitution | normalised enrichment score
GSTKRRLFGEDPP [A3T] | 0.742
GSARRRLFGEDPP [K4R] | 1.26
GSQKRRLFGEDPP [A3Q] | 0.191
FSAKRRLFGEDPP [G1F] | 0.921
GSAKRRLFGEDKP [P12K] | 0.7
GSAKRRLFGEDTP [P12T] | 0.749
GSAKRRLFGEHPP [D11H] | 0.245
GSAKRRLFGQDPP [E10Q] | 0.163
GGAKRRLFGEDPP [S2G] | 0.583
ISAKRRLFGEDPP [G1I] | 1.14
GSAFRRLFGEDPP [K4F] | 0.47
GSAKRRLWGEDPP [F8W] | 0.207
GSAKRRLFGEDMP [P12M] | 0.388
HSAKRRLFGEDPP [G1H] | 0.519
GSIKRRLFGEDPP [A3I] | 0.188
SSAKRRLFGEDPP [G1S] | 0.675
GSAKRGLFGEDPP [R6G] | 0.0128
GSAYRRLFGEDPP [K4Y] | 0.578
GSAKKRLFGEDPP [R5K] | 0.435
GSAKRRLFNEDPP [G9N] | 1.11
GSAKRALFGEDPP [R6A] | 0.333

Set 3
Target: RING finger protein unkempt homolog, zinc fingers 1-6, GST-SBP tag (UNK, Homo sapiens, UniProt Q9C0B0, residues 30-357)
Technique: RNA Bind-n-Seq
Molecule type: RNA
Medium: in vitro
Tested at: not given
Setting: RNA with constant flanks, human and mouse sites, ends assumed
Relative to: input RNA pool
Reading: higher = stronger binding
Residues (chain): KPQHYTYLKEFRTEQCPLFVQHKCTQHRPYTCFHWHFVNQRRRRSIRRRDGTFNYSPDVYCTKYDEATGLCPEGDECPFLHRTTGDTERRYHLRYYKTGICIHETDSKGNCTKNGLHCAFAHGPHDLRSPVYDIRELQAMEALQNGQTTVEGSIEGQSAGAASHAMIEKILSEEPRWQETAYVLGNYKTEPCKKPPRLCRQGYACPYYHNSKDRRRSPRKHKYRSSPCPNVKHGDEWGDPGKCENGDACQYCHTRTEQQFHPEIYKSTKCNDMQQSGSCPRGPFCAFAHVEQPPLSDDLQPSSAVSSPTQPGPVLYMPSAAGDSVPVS
Strand | bound/input enrichment [ratio]
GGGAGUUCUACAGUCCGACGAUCCCACUGUCUUCAUUGAGAGAAGCGACUUUAAGGAGGAGUCAGAACCAGGCUAUAAGCGCCUAGCUUCGGGCCAGCCUGUGGGCCUGAGACACACUGGUUAUGUCAUUGAACUGCAGAAUACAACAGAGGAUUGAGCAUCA | 0.228
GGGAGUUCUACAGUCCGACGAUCGGCCUGGGACCGUCCUGGGCUAGUACAAAUAGCGGCAGUGGAGGCUCGAGAGGAAAGUUUGUUAGUGGAGGCAGUGGUAGAGGCCGUCAUGUACGGUCCUUUACUCGAUAGAUGUGUUCUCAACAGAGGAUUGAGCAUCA | 0.65
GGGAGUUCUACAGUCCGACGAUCUUCCGACAGUUUAUACUGGUUAUGAAUGCUUUAGAUAACAGAGCUGCCCGAAACCAUGUUAAUAGAAUGUGCCUGGCAGCUGAUGUUCCUCUUAUUGAAAGUGGAACAGCUGGGUAUCUUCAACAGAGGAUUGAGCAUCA | 0.161
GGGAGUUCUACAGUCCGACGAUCAUCUAUGAACCAAAGACGUUUAAAUCUUUGGCUGCAUUGGCUAAGCGGAGGCAGCAGGAGGGAUUUGCUGCAGCUUUGGGGGAUGGAAAGGAGCCUGAAGGUAUCUUUUCCAGAGUGGUGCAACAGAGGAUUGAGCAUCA | 0.328
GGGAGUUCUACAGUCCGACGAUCCAGCCGCUCCUGGUAUCAGAGCUGCUUUCCAGAGGGCAGCACAGCCAGGGCCGGGUGUCUUUAGGGAUCAGUUUUUCCAAGACUCCAGAAGGUGCCAGGUUCUCCCCUUGAGCUCCUGCUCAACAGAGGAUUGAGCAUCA | 0.0631
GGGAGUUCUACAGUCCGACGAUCGAAGUUCUUGCUGGACGGCCACUGUUCCCGCAUGUUCUCUGCCACAACUGUGCAGUUGAAUUUAAUUUUGGUCAGAAGGAAAAGCCAUAUUUUCCAAUACCUGAAGAGUAUACUUUCAUCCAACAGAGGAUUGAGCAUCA | 0.0563
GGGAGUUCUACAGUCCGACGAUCCCCGACGAUGAGGCCGCCAUGGGUAUUAAGAGCUGCGACCCCAAAGGCCCACUUAUGAUGUACAUUUCCAAGAUGGUGCCAACCUCUGACAAAGGCCGCUUCUAUGCCUUUGGUAGAGUGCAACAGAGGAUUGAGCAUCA | 0.327
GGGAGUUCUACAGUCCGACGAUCGCGGAGCUUCUGAAAAAUGCAGAUGAGCUAGUCAAACAGAAAAUUCAUCCAACAUCAGUUAUUAGUGGCUAUCGUCUUGCCUGCAAGGAAGCGGUGCGUUAUAUCAAUGAGAACCUGAUUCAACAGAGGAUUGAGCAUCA | 0.2

Set 4
Target: ABI1, truncated, D143A, DHFR fusion (Arabidopsis thaliana)
Technique: DHFR PCA, deep sequencing
Medium: yeast
Setting: methotrexate growth selection, single substitutions
Together with: (+)-ABA 0.0091 µM
Relative to: wild-type fitted maximum
Reading: higher = stronger binding
Starting sequence: PYL1, truncated, DHFR fusion (Arabidopsis thaliana); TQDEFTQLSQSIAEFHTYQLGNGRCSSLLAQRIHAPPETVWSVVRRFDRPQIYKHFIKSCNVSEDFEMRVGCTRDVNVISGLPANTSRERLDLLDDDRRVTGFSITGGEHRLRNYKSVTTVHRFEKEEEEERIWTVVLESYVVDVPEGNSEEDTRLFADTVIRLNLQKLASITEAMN; partner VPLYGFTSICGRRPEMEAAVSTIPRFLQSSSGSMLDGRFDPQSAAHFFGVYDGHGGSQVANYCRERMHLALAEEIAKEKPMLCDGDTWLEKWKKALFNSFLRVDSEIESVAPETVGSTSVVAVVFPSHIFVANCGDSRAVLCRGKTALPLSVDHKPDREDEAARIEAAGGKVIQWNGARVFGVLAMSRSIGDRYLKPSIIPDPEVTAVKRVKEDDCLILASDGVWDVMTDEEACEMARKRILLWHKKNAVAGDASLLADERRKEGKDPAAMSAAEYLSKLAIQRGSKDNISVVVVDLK
Substitution | relative binding score [%]
P146S | 13.4
C25H | 4.35
R163G | 6.81
T1W | 22.9
R45Y | -3.53
E67K | 23.5
V78T | 29.6
V40E | -2.9
T6L | 37.4
F15A | 4.83
R49C | 29.9
L28R | 4.31
Q2N | 29.1
R69V | 35.7
R46C | 3.54
A170F | -15.7
H122V | -6.12
C60N | -0.567
P83R | 16.4
D48Y | 5.84
P146R | 2.22
V70Y | -5.19
F103G | -5.89
E128M | 14.3
